Results collected from several papers.
Every numbered part comes from another study and shows a few of its results, in no order. Positions count from the first letter of the parent shown.

Study 1 — target: CREM, bZIP domain (human); technique: DHFR protein complementation; matrix: yeast; baseline: wild-type JUN-FOS pair; direction: higher = stronger binding
Notes: single substitutions, most at no-binding floor
Starting sequence: JUN, bZIP domain (human); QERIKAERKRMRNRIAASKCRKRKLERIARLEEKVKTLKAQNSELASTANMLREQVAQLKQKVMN; partner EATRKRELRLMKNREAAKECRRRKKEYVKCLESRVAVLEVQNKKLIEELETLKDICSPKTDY
| Substitution | binding fitness |
| --- | --- |
| V56W | -1.47 natural log |
| E33K | -0.995 natural log |
| M51S | -1.44 natural log |
| V56S | -1.59 natural log |
| R53L | -1.38 natural log |
| I28W | -1.34 natural log |
| L52Q | -1.54 natural log |
| L45C | -1.5 natural log |
| L45K | -1.43 natural log |
| T37H | -1.47 natural log |
| V35A | -1.36 natural log |
| E33G | -1.5 natural log |
| A49V | -1.37 natural log |
| Q41V | -1.47 natural log |
| A57W | -1.37 natural log |
| I28K | -1.43 natural log |
| R30M | -1.26 natural log |
| A40L | -1.49 natural log |
| R53W | -1.44 natural log |
| E44V | -1.45 natural log |

Study 2 — technique: protein-binding microarray; molecule type: double-stranded DNA, one strand shown; matrix: in vitro; concentration: not given; direction: higher = stronger binding
Target: Transcription factor Sp1 (SP1, Homo sapiens, UniProt P08047, residues 1-785, full length assumed)
UniProt P08047, sequence (whole entry, looked up): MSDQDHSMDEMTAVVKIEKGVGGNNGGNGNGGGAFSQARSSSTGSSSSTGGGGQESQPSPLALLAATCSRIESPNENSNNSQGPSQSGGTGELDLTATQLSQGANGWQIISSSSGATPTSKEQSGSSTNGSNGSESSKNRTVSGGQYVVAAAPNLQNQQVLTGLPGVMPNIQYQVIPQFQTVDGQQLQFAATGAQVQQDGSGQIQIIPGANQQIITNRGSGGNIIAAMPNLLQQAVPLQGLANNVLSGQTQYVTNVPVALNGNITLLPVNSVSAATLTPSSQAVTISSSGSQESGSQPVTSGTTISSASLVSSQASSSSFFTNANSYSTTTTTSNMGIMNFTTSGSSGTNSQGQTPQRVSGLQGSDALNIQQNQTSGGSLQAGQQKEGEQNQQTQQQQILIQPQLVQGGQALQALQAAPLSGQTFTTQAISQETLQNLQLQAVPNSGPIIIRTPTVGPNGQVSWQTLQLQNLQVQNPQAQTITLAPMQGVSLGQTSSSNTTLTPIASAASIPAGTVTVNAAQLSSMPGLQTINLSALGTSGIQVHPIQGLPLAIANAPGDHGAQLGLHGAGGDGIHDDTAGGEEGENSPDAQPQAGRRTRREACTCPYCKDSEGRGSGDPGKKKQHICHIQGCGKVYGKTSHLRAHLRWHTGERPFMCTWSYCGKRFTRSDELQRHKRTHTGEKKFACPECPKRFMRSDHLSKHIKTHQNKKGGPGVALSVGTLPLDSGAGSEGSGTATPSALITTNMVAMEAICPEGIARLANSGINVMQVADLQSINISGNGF
Notes: k-mer, scored over probes, only values ≥0.25
| Oligonucleotide | E-score |
| --- | --- |
| GTCGGGGA | 0.299 |
| ACCATTAA | 0.304 |
| CCTTCCCC | 0.363 |
| CCCCTTGC | 0.256 |
| ATGGAGGG | 0.312 |
| GACCGCCC | 0.348 |
| AACTCCCC | 0.288 |
| GGCGGGTA | 0.287 |
| CACGCCCA | 0.467 |
| ATATCGCC | 0.297 |
| GTGGGGTA | 0.36 |
| ACTCCCCA | 0.251 |
| AACGTAGA | 0.258 |
| AGGGGTTA | 0.26 |
| CTCCCCAC | 0.296 |
| CCTCGCCC | 0.256 |
| CGAGGGGC | 0.257 |
| CATATGGG | 0.333 |
| ATATAAAC | 0.259 |
| GACGCCCA | 0.333 |
| ATGAATGG | 0.278 |
| CGCCTCCC | 0.364 |
| ATTATATA | 0.282 |
| ACGCATAT | 0.262 |
| ATCCCCAT | 0.264 |

Study 3 — technique: protein-binding microarray; molecule type: double-stranded DNA, one strand shown; matrix: in vitro; concentration: 940 nM top; notes: 60-bp whole probe; together with: salmon DNA 0.4 mg/ml; baseline: random background probes; direction: higher = stronger binding; shared flanks, not repeated: GCCTAGCAC … GTCTTGATTCGCTTGACGCTGCTG
Target: Interferon regulatory factor 5, full length, phosphomimetic (IRF5, Homo sapiens, UniProt Q13568-2, residues 1-514, S451D/S453D/S456D/S462D)
| Oligonucleotide | fitted relative affinity [z-score] |
| --- | --- |
| GACGTTATCAGTTTCGAGACGTGCTAG | 4.18 |
| GACCATCTCAGTCTCGAGACGTGCTAG | 1.47 |
| AGAAACTTTTTTCTGATTGAGTGCTAG | 1.17 |
| GTCAGCGGTGGTGTTCGGTGGTGCTAG | -0.58 |
| TTAGGTTTACTTATCCTTTAGTGCTAG | -0.216 |
| AACGATTTCAGACTGGAGACGTGCTAG | -0.326 |
| CTTTCTTTATGCACTCTCTACGTGCTA | 1.39 |
| GACGATATCGGTTTCGGGACGTGCTAG | 4.28 |
| TCACCTTGGCCTCTAGGACTGTGCTAG | -0.566 |
| TTCGGTCTCCTTTTCCTTTAGTGCTAG | 0.906 |
| TCATCTCTACTTGTGTCACTGTGCTAG | 0.949 |
| TCACTTATAAATAGCACACTGTGCTAG | 0.471 |
| TCACCTCTAGGTTTTCTACTGTGCTAG | 0.154 |
| CTAGGACTGCTTCTCCTTTAGTGCTAG | -0.238 |
| ATAGGTCTCCTTATCCTTTAGTGCTAG | 0.502 |
| AGACCATCCTGTATGGATGTGTGCTAG | -0.644 |
| GACGGACTGGGTATCGGGTCGTGCTAG | 2.08 |
| TCACTCCTCCTTCTCTAACTGTGCTAG | 0.992 |
| TCACATATAATTTTGTCATCGTGCTAG | 0.635 |

Study 4 — target: CCND1, cyclin fold, Cln2 fusion (human); technique: yeast growth competition, sequencing; matrix: yeast; notes: strong parent motif; baseline: not given; direction: higher = stronger binding
Starting sequence: E2F1 docking peptide (human); PPVKRRLDFETDH
| Substitution | normalised enrichment score |
| --- | --- |
| L7V | 0.0357 |
| K4L | 0.482 |
| R6K | 3.07 |
| D12H | 2.71 |
| P2R | 1.9 |
| F9Y | 0.168 |
| V3Q | 0.255 |
| R6P | 0.391 |
| F9K | 0.137 |
| R5P | 0.898 |
| F9W | 0.426 |
| R6S | 1.13 |
| K4R | 3.96 |
| D12E | 3.16 |
| T11S | 3.51 |
| V3L | 0.917 |
| D8P | 0.219 |
| R6F | 1.33 |
| R6Y | 1.43 |
| V3E | 0.403 |
| F9C | 0.065 |
| K4M | 2.96 |
| D12P | 3.44 |
| L7K | 0.149 |
| E10P | 1.37 |

Study 5 — target: CEP164, C-terminal peptide (human); technique: DHFR complementation, deep sequencing; matrix: yeast; baseline: wild type; direction: higher = weaker binding
Notes: single substitutions, model-inferred values
Starting sequence: PDZK1, PDZ domain 2 (human); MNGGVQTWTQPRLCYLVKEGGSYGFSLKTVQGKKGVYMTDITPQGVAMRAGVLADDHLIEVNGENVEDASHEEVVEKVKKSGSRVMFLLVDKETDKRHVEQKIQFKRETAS; partner HNRVKVYRF
| Substitution | binding free energy change [kJ/mol] |
| --- | --- |
| V99N | -0.524 |
| L88K | -1.2 |
| G82H | 2.22 |
| G32T | 2.39 |
| Y15D | 0.56 |
| G20N | 0.156 |
| T42I | -1.12 |
| H98G | -0.686 |
| S83G | 0.0311 |
| Q104F | -2.18 |
| T7I | 0.0482 |
| Q10P | 0.483 |
| Q101I | 0.405 |
| V36G | 4.43 |
| G82M | 2.58 |
| D68F | 0.485 |
| Q6K | -0.406 |
| K28M | -2.35 |
| E100W | -0.584 |
| K102A | -0.316 |
| K96A | -1.06 |
| D40W | 3.16 |
| K79Y | 2.69 |
| L58A | 1.14 |
| L27I | -0.349 |
